Earlier results that unrelated publications cite.
Compare with care: the assays were run in different laboratories. ± marks the error that the study gave.
BRD4 BD1: Bromodomain-containing protein 4, BD1 (BRD4, Homo sapiens, UniProt O60885)
UniProt P02716, sequence (whole entry, looked up): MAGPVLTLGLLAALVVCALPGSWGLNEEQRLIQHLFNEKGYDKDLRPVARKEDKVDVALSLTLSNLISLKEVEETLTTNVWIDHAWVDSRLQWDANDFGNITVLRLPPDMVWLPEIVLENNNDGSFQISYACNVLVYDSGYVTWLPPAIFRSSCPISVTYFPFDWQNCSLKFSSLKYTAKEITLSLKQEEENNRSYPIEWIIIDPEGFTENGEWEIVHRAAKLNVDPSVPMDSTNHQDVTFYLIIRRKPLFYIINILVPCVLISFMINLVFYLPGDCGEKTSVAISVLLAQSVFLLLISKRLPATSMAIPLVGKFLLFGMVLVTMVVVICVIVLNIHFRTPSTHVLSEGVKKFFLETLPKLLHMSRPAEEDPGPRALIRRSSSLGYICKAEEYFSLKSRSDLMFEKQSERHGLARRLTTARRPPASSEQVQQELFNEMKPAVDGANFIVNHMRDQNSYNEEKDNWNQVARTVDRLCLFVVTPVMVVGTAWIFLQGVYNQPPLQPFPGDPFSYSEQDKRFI
UniProt Q86WV6, sequence (whole entry, unmodified, looked up): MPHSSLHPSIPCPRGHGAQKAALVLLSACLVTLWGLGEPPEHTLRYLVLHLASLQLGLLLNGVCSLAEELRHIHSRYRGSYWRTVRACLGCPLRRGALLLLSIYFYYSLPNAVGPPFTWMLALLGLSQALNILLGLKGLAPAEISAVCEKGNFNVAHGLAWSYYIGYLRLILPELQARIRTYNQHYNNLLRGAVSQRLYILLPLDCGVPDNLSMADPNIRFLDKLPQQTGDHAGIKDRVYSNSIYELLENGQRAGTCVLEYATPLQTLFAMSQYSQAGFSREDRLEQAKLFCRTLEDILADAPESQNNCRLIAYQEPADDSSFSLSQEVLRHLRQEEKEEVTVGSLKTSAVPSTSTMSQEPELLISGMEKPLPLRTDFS
UniProt P04756, sequence (whole entry, looked up): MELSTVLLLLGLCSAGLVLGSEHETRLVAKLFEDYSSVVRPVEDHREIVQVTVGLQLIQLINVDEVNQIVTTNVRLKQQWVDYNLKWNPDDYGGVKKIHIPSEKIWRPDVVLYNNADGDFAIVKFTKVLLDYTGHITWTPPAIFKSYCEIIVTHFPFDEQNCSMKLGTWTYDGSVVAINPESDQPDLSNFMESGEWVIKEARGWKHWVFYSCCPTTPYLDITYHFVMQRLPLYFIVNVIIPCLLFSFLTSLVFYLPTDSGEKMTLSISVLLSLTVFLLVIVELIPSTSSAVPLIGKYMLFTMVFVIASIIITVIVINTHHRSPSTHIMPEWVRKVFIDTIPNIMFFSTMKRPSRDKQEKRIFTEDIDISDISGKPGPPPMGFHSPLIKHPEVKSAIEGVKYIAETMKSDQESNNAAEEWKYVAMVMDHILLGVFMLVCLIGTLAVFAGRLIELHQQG
UniProt P35367, sequence (whole entry, looked up): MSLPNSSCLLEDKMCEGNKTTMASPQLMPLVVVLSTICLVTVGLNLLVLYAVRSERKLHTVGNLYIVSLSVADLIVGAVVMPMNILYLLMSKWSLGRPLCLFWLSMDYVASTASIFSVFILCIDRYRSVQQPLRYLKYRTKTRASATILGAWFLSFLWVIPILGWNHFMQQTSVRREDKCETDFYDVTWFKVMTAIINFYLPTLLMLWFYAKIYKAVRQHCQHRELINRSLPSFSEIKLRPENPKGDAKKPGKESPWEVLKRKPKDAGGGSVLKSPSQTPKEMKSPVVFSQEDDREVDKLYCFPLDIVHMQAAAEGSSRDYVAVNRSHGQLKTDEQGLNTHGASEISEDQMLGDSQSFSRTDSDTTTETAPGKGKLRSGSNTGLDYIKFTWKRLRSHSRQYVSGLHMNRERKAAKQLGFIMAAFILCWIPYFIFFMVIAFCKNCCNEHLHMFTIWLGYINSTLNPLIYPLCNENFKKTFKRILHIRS
UniProt P20782, sequence (whole entry, looked up): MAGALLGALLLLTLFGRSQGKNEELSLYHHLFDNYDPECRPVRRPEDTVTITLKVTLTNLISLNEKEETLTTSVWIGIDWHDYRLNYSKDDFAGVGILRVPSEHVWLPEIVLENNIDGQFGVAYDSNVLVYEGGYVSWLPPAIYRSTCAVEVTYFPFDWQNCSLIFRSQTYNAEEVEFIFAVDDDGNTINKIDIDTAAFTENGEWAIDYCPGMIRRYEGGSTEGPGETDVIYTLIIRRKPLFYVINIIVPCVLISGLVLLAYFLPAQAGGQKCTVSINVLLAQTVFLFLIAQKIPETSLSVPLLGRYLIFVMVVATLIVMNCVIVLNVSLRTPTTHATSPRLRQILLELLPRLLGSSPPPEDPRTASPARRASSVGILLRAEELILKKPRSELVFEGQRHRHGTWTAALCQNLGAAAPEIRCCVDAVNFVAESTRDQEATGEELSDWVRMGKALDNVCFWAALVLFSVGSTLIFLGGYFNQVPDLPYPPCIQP
UniProt Q14831, sequence (whole entry, looked up): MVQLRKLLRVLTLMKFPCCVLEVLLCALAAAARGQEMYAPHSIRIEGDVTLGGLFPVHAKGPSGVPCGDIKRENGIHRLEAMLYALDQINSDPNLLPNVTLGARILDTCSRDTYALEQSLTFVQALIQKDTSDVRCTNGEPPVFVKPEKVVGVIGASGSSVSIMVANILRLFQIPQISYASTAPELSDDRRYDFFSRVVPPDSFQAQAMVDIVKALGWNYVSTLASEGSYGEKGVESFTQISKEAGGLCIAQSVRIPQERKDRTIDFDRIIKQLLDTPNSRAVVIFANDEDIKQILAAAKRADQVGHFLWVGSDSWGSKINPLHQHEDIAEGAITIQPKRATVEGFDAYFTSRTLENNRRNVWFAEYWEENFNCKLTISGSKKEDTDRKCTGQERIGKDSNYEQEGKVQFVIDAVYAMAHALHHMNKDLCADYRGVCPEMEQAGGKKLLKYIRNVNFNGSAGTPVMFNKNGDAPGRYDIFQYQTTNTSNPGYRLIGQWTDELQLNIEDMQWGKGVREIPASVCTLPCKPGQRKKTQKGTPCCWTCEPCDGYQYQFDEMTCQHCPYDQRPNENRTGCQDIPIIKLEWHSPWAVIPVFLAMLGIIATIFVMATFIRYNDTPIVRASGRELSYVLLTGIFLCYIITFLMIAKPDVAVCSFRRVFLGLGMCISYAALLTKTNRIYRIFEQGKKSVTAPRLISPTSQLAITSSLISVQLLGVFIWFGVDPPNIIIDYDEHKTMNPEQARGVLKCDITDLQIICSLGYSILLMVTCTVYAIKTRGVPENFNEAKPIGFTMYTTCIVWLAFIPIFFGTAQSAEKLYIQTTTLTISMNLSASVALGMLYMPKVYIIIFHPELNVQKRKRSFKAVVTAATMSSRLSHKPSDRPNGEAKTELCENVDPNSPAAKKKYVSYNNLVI

Structure (SMILES) = CC(C)c1ccccc1-c1nc(NCc2ccccn2)c2c(ccn2C)n1; tested on = PI5P4Kγ; endpoint = Kd; result = 0.068 µM
Structure (SMILES) = O=C(C=C(O)C(F)(F)C(F)(F)F)c1ccoc1; tested on = Plasmodium falciparum formate-nitrite transporter; assay = binding, FCCS; test system = isolated protein; endpoint = Ki; result = 0.072 ± 0.006 µM
Structure (SMILES) = c1ccc2c(c1)CCCNC2c1c[nH]c2ccccc12 (centres unmarked); tested on = Escherichia coli; assay = efflux pump inhibition; test system = AG100 AcrAB-TolC expressing; setting = 50 µM; scale = baseline: untreated cells; endpoint = relative fluorescence index; result = 0.36
Structure (SMILES) = N[C@H](CNC(=O)c1ccc(-c2ccc(Cl)cc2[N+](=O)[O-])o1)C(=O)O; tested on = Glutamate receptor ionotropic, NMDA 1, with GluN2C (Grin1, Rattus norvegicus, UniProt P35439); setting = with: saturating glutamate; endpoint = EC50; result = 0.074 µM
Structure (SMILES) = O=C(O)CCCOc1ccccc1-c1cc(-c2ccccc2)n(-c2ccccc2Cl)n1; tested on = FABP3; assay = binding; endpoint = Kd; result = 0.303 µM
Structure (SMILES) = CN1CCN(c2ccc3[nH]c(-c4ccc5[nH]c(-c6ccc(OCCCCNC(=O)c7ccc8c(c7)C(=O)OC87c8ccc(N(C)C)cc8C(C)(C)c8cc(N(C)C)ccc87)cc6)nc5c4)nc3c2)CC1; tested on = hairpin DNA; assay = binding; test system = PBS; endpoint = Kd; result = 0.35 ± 0.02 µM
Structure (SMILES) = Cc1sc(-c2ccc(C(F)(F)F)cc2)nc1-c1nn[nH]c1C#N; test system = ZDF rat; setting = 2 mg/kg/day, 6 weeks; endpoint = HbA1c at end of treatment; result = 9.29 ± 0.13%
Structure (SMILES) = CCc1c(C(=O)Nc2cc(S(=O)(=O)N(CC)CC)ccc2O)[nH]c(C)c1C(C)=O; tested on = BRD4 BD1; assay = binding; endpoint = Kd; result = 0.237 µM
Structure (SMILES) = CNc1ccc(C(=O)C=C(O)C(F)(F)C(F)(F)F)cn1; tested on = Plasmodium falciparum formate-nitrite transporter; assay = binding, FCCS; test system = isolated protein; endpoint = Ki; result = 0.036 ± 0.012 µM
Structure (SMILES) = Cn1nnnc1Sc1ncnc2scc(-c3cccc(S(C)(=O)=O)c3)c12; tested on = PI5P4Kγ; endpoint = Kd; result = 0.354 µM
Structure (SMILES) = Cc1nc(-c2ccc(F)cc2)sc1C(=O)N[C@H](C(=O)Nc1cccc(C(N)=O)c1)c1ccc(OCc2ccccc2)cc1; tested on = Genome polyprotein, NS2B-NS3 protease (dengue virus type 2, UniProt P29990); assay = DENV-2 protease cell reporter; test system = HeLa; endpoint = EC50; result = 3.4 µM
Structure (SMILES) = COc1ccc(Nc2nc(Nc3ccc(OCC[18F])cc3)ncc2Br)cc1; test system = S180 tumour-bearing mice; setting = intravenous, 5 min; scale = baseline: tumour over blood; endpoint = tumour to tissue ratio; result = 0.55
Structure (SMILES) = COc1cc(F)cc2c(N3CCN4c5c(F)cccc5OC[C@@H]4C3)c(C#N)nnc12; tested on = GRM7 (Homo sapiens, UniProt Q14831); assay = positive allosteric modulator; endpoint = EC50; result = 0.15 µM
Structure (SMILES) = CC(=O)Nc1ccc(C(=O)C=C(O)C(F)(F)C(F)(F)F)cn1; tested on = Plasmodium falciparum formate-nitrite transporter; assay = binding, FCCS; test system = isolated protein; endpoint = Ki; result = 0.035 ± 0.008 µM
Structure (SMILES) = O=C(N/N=C/c1cc(O)c(O)cc1O)c1ccc(-c2nnc(-c3ccc4ncccc4c3)o2)cc1; tested on = α-glucosidase; assay = inhibitor; endpoint = IC50; result = 2.6 ± 0.01 µM
Structure (SMILES) = Nc1nc(OCc2ccc(CNC(=O)C(F)(F)F)cc2)c2[nH]cnc2n1; tested on = Pin1; assay = isothermal titration calorimetry; endpoint = Kd; result = 2.9 µM
Structure (SMILES) = COc1ccc(S(=O)(=O)N2CCCCC2)cc1NC(=O)c1[nH]c(C)c2c1CCCCC2=O; tested on = BRD4 bromodomain; assay = binding; endpoint = Kd; result = 0.082 µM
Structure (SMILES) = COc1cc(CNc2ccc(C(=O)C=C(O)C(F)(F)C(F)(F)F)cn2)cc(OC)c1OC; tested on = Plasmodium falciparum formate-nitrite transporter; assay = binding, FCCS; test system = isolated protein; endpoint = Ki; result = 0.049 ± 0.012 µM
Structure (SMILES) = C[N+]1(C)CCSC1; tested on = Chrnd/Chrna1/Chrne (Mus musculus, UniProt P02716+P04756+P20782); setting = wild-type receptor; endpoint = Kd; result = 1600 µM
Structure (SMILES) = O=c1ccc(OCCCN2CCCCC2)nn1-c1ccc(Cl)c(Cl)c1; tested on = HRH1 (Homo sapiens, UniProt P35367); setting = 1.0 µM; endpoint = inhibition; result = 11.9 ± 1.4%
Structure (SMILES) = CCOC(=O)C(c1cc(Cl)c2cccnc2c1O)N1CCOCC1 (centres unmarked); tested on = COLO 320 ABCB1-overexpressing; assay = cell viability; endpoint = IC50; result = 1.72 µM
Structure (SMILES) = CCn1c2c(c(=O)[nH]c1=O)C(c1ccccc1)C1=C(CN(CCc3ccc(O)cc3)C1=O)N2 (centres unmarked); tested on = BRD4 BD1; assay = binding; endpoint = Kd; result = 0.13 µM
Structure (SMILES) = O=C(N/N=C/c1ccccc1F)c1ccc2ncccc2c1; tested on = α-glucosidase; assay = inhibitor; endpoint = IC50; result = 7.4 ± 0.2 µM
Structure (SMILES) = CCCCNc1ccc(C(=O)C=C(O)C(F)(F)C(F)(F)F)cn1; tested on = Plasmodium falciparum formate-nitrite transporter; assay = binding, FCCS; test system = isolated protein; endpoint = Ki; result = 0.027 ± 0.004 µM
Structure (SMILES) = CC(C)=CCC[C@]1(C)[C@@H](CC=C(C)C)C[C@@]2(CC=C(C)C)C(=O)[C@]1(C(=O)C(C)C)C(=O)C(CC=C(C)C)=C2O; tested on = dihydrolipoamide acetyltransferase (Dlat); assay = binding; endpoint = Kd; result = 0.578 µM
Structure (SMILES) = CCCCCNc1ccc(C(=O)C=C(O)C(F)(F)C(F)(F)F)cn1; tested on = Plasmodium falciparum formate-nitrite transporter; assay = binding, FCCS; test system = isolated protein; endpoint = Ki; result = 0.013 ± 0.001 µM
Structure (SMILES) = CN1CCN(c2ccc3[nH]c(-c4ccc5[nH]c(-c6ccc(OCCCCNC(=O)c7ccc8c(c7)C7(OC8=O)c8ccc(N(C)C)cc8C(C)(C)c8cc(N(C)C)ccc87)cc6)nc5c4)nc3c2)CC1; tested on = hairpin DNA; assay = binding; endpoint = Kd; result = 4.4 ± 1.8 µM
Structure (SMILES) = O=C(C=C(O)C(F)(F)c1ccccc1)c1cccnc1; tested on = Plasmodium falciparum formate-nitrite transporter; assay = binding, FCCS; test system = isolated protein; endpoint = Ki; result = 5.84 ± 0.96 µM
Structure (SMILES) = O=C(N[C@@H](CCCCNC(=O)c1ccc([N+](=O)[O-])o1)c1nc2ccccc2[nH]1)c1ccc(-c2ccccc2)cc1; tested on = STING1 (Homo sapiens, UniProt Q86WV6, H232R); assay = agonist; test system = THP-1 (STING R232); endpoint = EC50; result = 2 µM

Excerpt of the above:
Structure (SMILES) = O=C(C=C(O)C(F)(F)C(F)(F)F)c1ccoc1; tested on = Plasmodium falciparum formate-nitrite transporter; assay = binding, FCCS; test system = isolated protein; endpoint = Ki; result = 0.072 ± 0.006 µM
Structure (SMILES) = Nc1nc(OCc2ccc(CNC(=O)C(F)(F)F)cc2)c2[nH]cnc2n1; tested on = Pin1; assay = isothermal titration calorimetry; endpoint = Kd; result = 2.9 µM
Structure (SMILES) = O=C(O)CCCOc1ccccc1-c1cc(-c2ccccc2)n(-c2ccccc2Cl)n1; tested on = FABP3; assay = binding; endpoint = Kd; result = 0.303 µM
